Assay results of several laboratories.
TYK2 JH1: Non-receptor tyrosine-protein kinase TYK2, JH1 (TYK2, Homo sapiens, UniProt P29597)
TYK2 JH2: Non-receptor tyrosine-protein kinase TYK2, JH2 (TYK2, Homo sapiens, UniProt P29597)

For Nc1ncc2c(n1)-c1c([nH]c3ccc(C4=CCOCC4)cc13)CCC2, the remaining binding was 54% (TYK2 JH1; binding, competition with immobilised ligand; 1 µM).
The remaining binding of CNC(=O)C1CCN(c2cc(C)c(F)cc2NC(=O)c2ccc(-c3cc(O)ccc3C)c(C)c2)CC1 is reported as 47% (TYK2 JH1; binding, competition with immobilised ligand; 1 µM).
For CN1CCN(Cc2ccc(NC(=O)c3cccc(C#Cc4cnc(N)c5ncccc45)c3)cc2C(F)(F)F)CC1, the remaining binding was 32% (TYK2 JH1; cell-free assay, competition with immobilised ligand; 50 nM).
CNC1C[S+]2CC[S+]3CC[S+](C1)[Ru-4]321([N]=C=S)[n]2c3ccc(OC)cc3c3c4c(c5cc(F)c[n+]1c5c32)C(=O)NC4=O (stereo not shown) has a remaining binding of 87% (Non-receptor tyrosine-protein kinase TYK2, JH2 pseudokinase domain (TYK2, Homo sapiens, UniProt P29597); KinomeScan; 0.1 µM; baseline: untreated).
CNS(=O)(=O)Nc1nccc(Cc2c(C)c3ccc(Oc4ncccc4F)cc3oc2=O)c1F has a remaining binding of 98% (TYK2 JH1; binding, competition with immobilised ligand; 10 µM).
With C=CC(=O)N1CCc2ccc(-n3c(=O)ccc4cnc5ccc(-c6cnn(C)c6)cc5c43)cc21 the remaining binding was 100% (Non-receptor tyrosine-protein kinase TYK2, JH1 domain (TYK2, Homo sapiens, UniProt P29597); KINOMEscan; 1 µM; baseline: DMSO control).
The remaining binding of CCN1CCN(Cc2ccc(C(=O)Nc3ccc(C)c(NCc4cnc5[nH]ccc5c4OC)c3)cc2C(F)(F)F)CC1 is reported as 100% (TYK2 JH2; binding, competition with immobilised ligand; 1 µM).
The remaining binding of COc1cc(Nc2nc(C)cc(-c3cnn4nc(OC)ccc34)n2)cc(C(F)(F)F)c1 is reported as 90% (TYK2 JH2; binding, competition with immobilised ligand; 1 µM).
Cc1ccc(-c2n[nH]cc2CNC(=O)C2(C#N)CC2)cc1 has a remaining binding of 18% (TYK2 (Homo sapiens, UniProt P29597); cell-free assay, competition with immobilised ligand; 10 µM).
With COc1ccc(NC(=O)Nc2ccc3c(c2)C(=O)N(C(C)CO)CC(C)C(CN(C)Cc2ccc4c(c2)OCO4)O3)cc1 (stereo not shown) the remaining binding was 87% (TYK2 JH1; binding, competition with immobilised ligand; 10 µM).
The remaining binding of COc1c(Cl)cccc1Nc1c(-c2ccncc2C#C[C@@]2(C)CCCN2C(=O)/C=C/CN(C)C)[nH]c2c1C(=O)NCC2 is reported as 98% (TYK2 JH1; cell-free assay, competition with immobilised ligand; 3 µM).
With COc1cc(Nc2nccc(-c3cnn4nc(OC)ccc34)n2)cc(C(F)(F)F)c1 the remaining binding was 100% (TYK2 JH2; binding, competition with immobilised ligand; 1 µM).
CCN1CCN(Cc2ccc(NC(=O)c3ccc(C)c(NC(=O)c4cncc(-c5cnn(C)c5)c4)c3)cc2C(F)(F)F)CC1 gave a remaining binding of 100% (TYK2 JH1; binding, competition with immobilised ligand; 1 µM).
Cc1ccc(-c2c(/C=C(\C#N)C(=O)NC(C)C)n(CCCO)c3ncnc(N)c23)cc1 has a remaining binding of 100% (TYK2 JH2; cell-free assay, competition with immobilised ligand; 1 µM).
With C=CC(=O)N1CCCC(n2c(=O)c3ncccc3n(Cc3ccc(Oc4ccccc4)cc3)c2=O)C1 (stereo not shown) the remaining binding was 100% (TYK2 JH2; cell-free assay, competition with immobilised ligand; 1 µM).
CC(C)=CC1OC(C)(C)C2C=C3C(=O)C(Cl)=CC(O)C3C3C(O)C4OC4C(=O)C132 (stereo not shown) has a remaining binding of 41% (TYK2 JH1; cell-free assay, competition with immobilised ligand; 10 µM).
